{"data": "Measured values from different studies", "note": "Numbered parts are unrelated; each lists some results of a single study. Values joined by “and” are separate records of one study, mostly repeats; a detail may differ. Substitutions count along the parent as printed."}
{"data": "Sample 1", "target": "CCND3, cyclin fold, Cln2 fusion (human)", "method": "yeast growth competition, sequencing", "matrix": "yeast", "notes": "weak parent motif", "reference": "not given", "direction": "higher = stronger binding", "parent": "RBL2 docking peptide (human); STTRRRLFVENDS; partner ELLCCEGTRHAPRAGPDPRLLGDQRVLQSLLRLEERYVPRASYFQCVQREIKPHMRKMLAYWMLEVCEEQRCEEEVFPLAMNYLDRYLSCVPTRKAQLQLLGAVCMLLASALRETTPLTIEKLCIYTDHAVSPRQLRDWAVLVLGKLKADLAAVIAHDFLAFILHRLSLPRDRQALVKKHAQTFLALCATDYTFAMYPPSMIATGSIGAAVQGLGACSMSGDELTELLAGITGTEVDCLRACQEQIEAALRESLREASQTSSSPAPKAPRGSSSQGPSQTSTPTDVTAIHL"}
{"Variant": "STTRRRLCVENDS [F8C]", "normalised enrichment score": 0.115}
{"Variant": "SKTRRRLFVENDS [T2K]", "normalised enrichment score": 0.242}
{"Variant": "STWRRRLFVENDS [T3W]", "normalised enrichment score": 0.154}
{"Variant": "STTRRRLFRENDS [V9R]", "normalised enrichment score": 0.105}
{"Variant": "STTRRRLFVHNDS [E10H]", "normalised enrichment score": 0.13}
{"Variant": "STTRRRLFVEFDS [N11F]", "normalised enrichment score": 0.135}
{"Variant": "STTRRRLFVENDH [S13H]", "normalised enrichment score": 0.147}
{"Variant": "STTRRRLFPENDS [V9P]", "normalised enrichment score": 0.083}
{"Variant": "STTRRRLFVENDE [S13E]", "normalised enrichment score": 0.0668}
{"Variant": "NTTRRRLFVENDS [S1N]", "normalised enrichment score": 0.103}
{"Variant": "STTRRILFVENDS [R6I]", "normalised enrichment score": 0.112}
{"Variant": "STTRERLFVENDS [R5E]", "normalised enrichment score": 0.111}
{"Variant": "STTRRRLFVENQS [D12Q]", "normalised enrichment score": 0.0598}
{"Variant": "STRRRRLFVENDS [T3R]", "normalised enrichment score": 0.1}
{"Variant": "STTRKRLLVENDS [R5K F8L]", "normalised enrichment score": -0.338}
{"data": "Sample 2", "target": "Prothrombin, mature alpha-thrombin (F2, Homo sapiens, UniProt P00734)", "method": "aptamer microarray, sandwich", "form": "DNA with 2'F-ANA", "matrix": "in vitro", "tested at": "200 nM", "notes": "whole 15-mer aptamer, many near background", "added": "Cy3 exosite-II aptamer, 400 nM", "direction": "higher = stronger binding", "strand": "GGTTGGTGTGGTTGG"}
{"Modification": "2'F-ANA at 1 3 7 8 9 10 12 13 14", "mean fluorescence intensity": "65.6 a.u."}
{"Modification": "2'F-ANA at 1 3 4 6 8 10 14 15", "mean fluorescence intensity": "54.1 a.u."}
{"Modification": "2'F-ANA at 3 4 9 13 14 15", "mean fluorescence intensity": "282 a.u."}
{"Modification": "2'F-ANA at 1 2 3 4 6 7 8 9 12 13 14 15", "mean fluorescence intensity": "128 a.u."}
{"Modification": "2'F-ANA at 2 3 6 7 11 12 13 14 15", "mean fluorescence intensity": "357 a.u."}
{"Modification": "2'F-ANA at 1 4 6 7 8 9 10 13 14", "mean fluorescence intensity": "52.4 a.u."}
{"Modification": "2'F-ANA at 1 2 3 4 6 8 10 13 15", "mean fluorescence intensity": "50.5 a.u."}
{"Modification": "2'F-ANA at 1 2 5 6", "mean fluorescence intensity": "56 a.u."}
{"Modification": "2'F-ANA at 6 9 13 14 15", "mean fluorescence intensity": "300 a.u."}
{"Modification": "2'F-ANA at 4 5 6 8 9 11 12 13", "mean fluorescence intensity": "75.8 a.u."}
{"Modification": "2'F-ANA at 2 5 7 11 13", "mean fluorescence intensity": "52.1 a.u."}
{"Modification": "2'F-ANA at 5 8 9 12 15", "mean fluorescence intensity": "196 a.u."}
{"Modification": "2'F-ANA at 1 2 3 9 10 11", "mean fluorescence intensity": "62.1 a.u."}
{"Modification": "2'F-ANA at 1 3 4 5 7 8", "mean fluorescence intensity": "69.5 a.u."}
{"Modification": "2'F-ANA at 3 4 6 7 8 10 13 14 15", "mean fluorescence intensity": "170 a.u."}
{"Modification": "2'F-ANA at 2 4 5 11 12 13 14", "mean fluorescence intensity": "47.6 a.u."}
{"Modification": "2'F-ANA at 1 2 5 7 8 10 11", "mean fluorescence intensity": "47.8 a.u."}
{"data": "Sample 3", "target": "Histone acetyltransferase KAT6A, winged helix 1, GST fusion (KAT6A, Homo sapiens, UniProt Q92794, residues 1-85)", "method": "protein binding microarray", "form": "double-stranded DNA, one strand shown", "matrix": "in vitro", "tested at": "not given", "notes": "8-mer, flanks averaged, mean of 2 arrays, mostly near background", "reference": "not given", "direction": "higher = stronger binding", "Target sequence (chain)": "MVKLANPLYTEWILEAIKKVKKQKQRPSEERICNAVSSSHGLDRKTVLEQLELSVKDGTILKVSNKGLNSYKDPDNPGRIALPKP"}
{"Strand": "ATTTTGAC", "E-score": -0.234}
{"Strand": "AAGAGTGA", "E-score": -0.247}
{"Strand": "ACCCAGTG", "E-score": -0.209}
{"Strand": "GTCTTGCA", "E-score": 0.0351}
{"Strand": "CCAAGCGC", "E-score": 0.311}
{"Strand": "CTTTCGCA", "E-score": -0.025}
{"Strand": "GAAAAGAC", "E-score": -0.116}
{"Strand": "TAAACAGA", "E-score": -0.216}
{"Strand": "GTTGATCA", "E-score": 0.0422}
{"Strand": "CCGGTATC", "E-score": 0.29}
{"Strand": "AATAAAGA", "E-score": -0.183}
{"data": "Further values, each from its own experiment"}
{"Molecule": "PhoQ, residues 284 288 289 292 302 303 ALASRC", "target": "PhoP, residues 12 14 15 18 19 LWHSL (Escherichia coli, UniProt P23836)", "assay": "Sort-seq, refers to: YFP reporter", "test system": "E. coli", "setting": "PhoQ-PhoP variant library, added: 10 µM Mg2+", "how to read": "reference: high Mg2+ state, higher = stronger signaling", "measurement": "fold induction", "result": "4.19 and 11.6"}
{"note": "Some of these lines once more (sample 2):"}
{"Modification": "2'F-ANA at 2 5 7 11 13", "mean fluorescence intensity": "52.1 a.u."}
{"Modification": "2'F-ANA at 1 2 5 7 8 10 11", "mean fluorescence intensity": "47.8 a.u."}
{"Modification": "2'F-ANA at 1 2 3 9 10 11", "mean fluorescence intensity": "62.1 a.u."}
{"Modification": "2'F-ANA at 1 3 7 8 9 10 12 13 14", "mean fluorescence intensity": "65.6 a.u."}
{"Modification": "2'F-ANA at 3 4 9 13 14 15", "mean fluorescence intensity": "282 a.u."}
{"Modification": "2'F-ANA at 1 3 4 6 8 10 14 15", "mean fluorescence intensity": "54.1 a.u."}
{"Modification": "2'F-ANA at 1 4 6 7 8 9 10 13 14", "mean fluorescence intensity": "52.4 a.u."}
